Results from different studies.
Compare with care: the assays were run in different laboratories. Several values in a cell are separate wells, animals, samples, runs or records. ± marks the error that the study gave.
lecB: Fucose-binding lectin PA-IIL (lecB, Pseudomonas aeruginosa, UniProt Q9HYN5)
Chain of UniProt O66465 (whole entry, looked up): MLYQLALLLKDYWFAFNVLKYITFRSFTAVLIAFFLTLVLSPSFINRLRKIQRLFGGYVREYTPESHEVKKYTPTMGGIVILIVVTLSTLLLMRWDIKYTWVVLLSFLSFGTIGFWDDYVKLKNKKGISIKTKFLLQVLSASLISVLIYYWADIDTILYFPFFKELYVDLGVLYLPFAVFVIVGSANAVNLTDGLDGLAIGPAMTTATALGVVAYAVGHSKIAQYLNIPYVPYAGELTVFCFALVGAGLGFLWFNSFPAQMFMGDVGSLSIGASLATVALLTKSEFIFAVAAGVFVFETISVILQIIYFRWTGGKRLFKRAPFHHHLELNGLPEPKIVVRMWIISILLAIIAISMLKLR
Chain of UniProt P02554 (whole entry, looked up): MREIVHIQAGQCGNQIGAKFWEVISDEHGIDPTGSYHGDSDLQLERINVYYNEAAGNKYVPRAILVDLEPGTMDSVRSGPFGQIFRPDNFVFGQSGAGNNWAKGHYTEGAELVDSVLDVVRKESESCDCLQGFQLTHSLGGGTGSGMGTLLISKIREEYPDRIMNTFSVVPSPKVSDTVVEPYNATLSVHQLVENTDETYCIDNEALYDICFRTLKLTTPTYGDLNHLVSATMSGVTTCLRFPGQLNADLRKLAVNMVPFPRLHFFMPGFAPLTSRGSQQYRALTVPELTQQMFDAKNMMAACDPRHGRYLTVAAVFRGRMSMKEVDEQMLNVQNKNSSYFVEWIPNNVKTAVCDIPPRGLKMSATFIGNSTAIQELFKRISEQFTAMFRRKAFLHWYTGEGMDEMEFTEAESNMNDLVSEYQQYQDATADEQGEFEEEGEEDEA
Chain of UniProt O54709 (whole entry, looked up): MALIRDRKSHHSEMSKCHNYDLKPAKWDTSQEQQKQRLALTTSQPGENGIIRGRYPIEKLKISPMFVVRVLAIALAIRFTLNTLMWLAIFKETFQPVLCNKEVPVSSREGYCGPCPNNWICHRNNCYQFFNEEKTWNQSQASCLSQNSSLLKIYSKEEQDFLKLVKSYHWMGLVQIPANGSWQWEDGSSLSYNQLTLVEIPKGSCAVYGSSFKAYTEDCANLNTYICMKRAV
Chain of UniProt P02550 (whole entry, looked up): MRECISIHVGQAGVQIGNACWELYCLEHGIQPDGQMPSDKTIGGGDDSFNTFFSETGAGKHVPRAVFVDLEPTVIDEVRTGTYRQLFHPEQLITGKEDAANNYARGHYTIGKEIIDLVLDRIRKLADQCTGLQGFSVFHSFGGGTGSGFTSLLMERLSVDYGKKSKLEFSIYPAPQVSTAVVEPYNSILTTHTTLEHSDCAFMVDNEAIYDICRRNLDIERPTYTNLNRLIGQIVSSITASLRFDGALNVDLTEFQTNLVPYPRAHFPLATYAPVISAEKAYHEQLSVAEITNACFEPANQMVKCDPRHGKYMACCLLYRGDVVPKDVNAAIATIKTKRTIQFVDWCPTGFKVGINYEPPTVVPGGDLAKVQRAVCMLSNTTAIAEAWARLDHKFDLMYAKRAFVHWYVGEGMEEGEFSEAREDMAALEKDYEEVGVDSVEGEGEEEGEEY
Chain of UniProt O04197 (whole entry, looked up): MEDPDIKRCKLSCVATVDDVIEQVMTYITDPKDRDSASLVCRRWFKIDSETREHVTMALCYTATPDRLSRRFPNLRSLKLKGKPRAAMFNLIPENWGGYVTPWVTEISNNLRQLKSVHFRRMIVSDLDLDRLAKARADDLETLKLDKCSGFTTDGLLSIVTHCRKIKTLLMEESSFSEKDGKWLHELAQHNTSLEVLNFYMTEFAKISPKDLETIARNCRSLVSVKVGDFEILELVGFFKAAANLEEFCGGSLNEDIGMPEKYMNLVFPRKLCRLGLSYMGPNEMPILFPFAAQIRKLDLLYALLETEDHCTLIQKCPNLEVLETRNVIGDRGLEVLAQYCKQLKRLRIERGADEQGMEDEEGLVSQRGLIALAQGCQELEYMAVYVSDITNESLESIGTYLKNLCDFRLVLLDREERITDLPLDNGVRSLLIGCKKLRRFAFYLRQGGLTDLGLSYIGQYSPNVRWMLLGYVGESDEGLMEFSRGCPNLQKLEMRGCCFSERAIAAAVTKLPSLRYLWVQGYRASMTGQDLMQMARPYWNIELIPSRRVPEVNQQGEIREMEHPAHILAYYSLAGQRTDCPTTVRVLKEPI
Chain of UniProt P09104 (whole entry, looked up): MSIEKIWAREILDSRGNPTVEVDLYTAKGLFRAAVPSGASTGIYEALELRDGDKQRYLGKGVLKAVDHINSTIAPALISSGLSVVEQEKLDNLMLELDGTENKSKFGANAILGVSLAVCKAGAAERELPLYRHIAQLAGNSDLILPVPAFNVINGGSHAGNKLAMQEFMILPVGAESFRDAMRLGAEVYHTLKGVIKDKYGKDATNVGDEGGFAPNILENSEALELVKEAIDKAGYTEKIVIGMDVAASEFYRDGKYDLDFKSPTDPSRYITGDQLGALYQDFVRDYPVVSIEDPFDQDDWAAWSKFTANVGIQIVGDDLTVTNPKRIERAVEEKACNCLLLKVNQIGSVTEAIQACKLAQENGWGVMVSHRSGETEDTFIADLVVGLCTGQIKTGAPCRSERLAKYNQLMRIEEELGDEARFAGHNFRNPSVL
Chain of UniProt P17931 (whole entry, looked up): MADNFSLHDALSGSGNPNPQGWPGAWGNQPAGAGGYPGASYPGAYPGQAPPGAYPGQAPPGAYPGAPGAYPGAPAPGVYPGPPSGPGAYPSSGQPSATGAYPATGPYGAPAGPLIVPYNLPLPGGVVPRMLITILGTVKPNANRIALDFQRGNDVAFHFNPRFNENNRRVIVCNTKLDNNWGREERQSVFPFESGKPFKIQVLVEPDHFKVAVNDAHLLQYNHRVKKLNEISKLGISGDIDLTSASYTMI
Chain of UniProt Q06911 (whole entry, looked up): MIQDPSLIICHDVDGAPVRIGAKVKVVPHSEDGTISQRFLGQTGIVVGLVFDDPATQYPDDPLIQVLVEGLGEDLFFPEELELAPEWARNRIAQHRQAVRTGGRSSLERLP
Chain of UniProt Q07741 (whole entry, looked up): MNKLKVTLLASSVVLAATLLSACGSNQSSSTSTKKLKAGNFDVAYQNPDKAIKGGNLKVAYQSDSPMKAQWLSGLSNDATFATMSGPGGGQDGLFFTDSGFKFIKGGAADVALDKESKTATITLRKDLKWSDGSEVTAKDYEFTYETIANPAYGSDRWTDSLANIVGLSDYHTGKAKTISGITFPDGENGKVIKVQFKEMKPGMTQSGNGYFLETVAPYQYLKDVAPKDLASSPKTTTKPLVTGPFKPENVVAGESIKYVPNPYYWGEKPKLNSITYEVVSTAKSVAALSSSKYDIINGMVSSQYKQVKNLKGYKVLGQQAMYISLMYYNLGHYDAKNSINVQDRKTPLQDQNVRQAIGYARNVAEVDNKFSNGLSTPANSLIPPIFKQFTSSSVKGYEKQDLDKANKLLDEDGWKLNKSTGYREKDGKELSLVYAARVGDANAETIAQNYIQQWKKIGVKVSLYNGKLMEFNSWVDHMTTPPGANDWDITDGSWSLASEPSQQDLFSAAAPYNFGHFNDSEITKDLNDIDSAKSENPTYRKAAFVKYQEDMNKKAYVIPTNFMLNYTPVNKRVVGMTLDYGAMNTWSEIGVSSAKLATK
Chain of UniProt P11362 (whole entry, looked up): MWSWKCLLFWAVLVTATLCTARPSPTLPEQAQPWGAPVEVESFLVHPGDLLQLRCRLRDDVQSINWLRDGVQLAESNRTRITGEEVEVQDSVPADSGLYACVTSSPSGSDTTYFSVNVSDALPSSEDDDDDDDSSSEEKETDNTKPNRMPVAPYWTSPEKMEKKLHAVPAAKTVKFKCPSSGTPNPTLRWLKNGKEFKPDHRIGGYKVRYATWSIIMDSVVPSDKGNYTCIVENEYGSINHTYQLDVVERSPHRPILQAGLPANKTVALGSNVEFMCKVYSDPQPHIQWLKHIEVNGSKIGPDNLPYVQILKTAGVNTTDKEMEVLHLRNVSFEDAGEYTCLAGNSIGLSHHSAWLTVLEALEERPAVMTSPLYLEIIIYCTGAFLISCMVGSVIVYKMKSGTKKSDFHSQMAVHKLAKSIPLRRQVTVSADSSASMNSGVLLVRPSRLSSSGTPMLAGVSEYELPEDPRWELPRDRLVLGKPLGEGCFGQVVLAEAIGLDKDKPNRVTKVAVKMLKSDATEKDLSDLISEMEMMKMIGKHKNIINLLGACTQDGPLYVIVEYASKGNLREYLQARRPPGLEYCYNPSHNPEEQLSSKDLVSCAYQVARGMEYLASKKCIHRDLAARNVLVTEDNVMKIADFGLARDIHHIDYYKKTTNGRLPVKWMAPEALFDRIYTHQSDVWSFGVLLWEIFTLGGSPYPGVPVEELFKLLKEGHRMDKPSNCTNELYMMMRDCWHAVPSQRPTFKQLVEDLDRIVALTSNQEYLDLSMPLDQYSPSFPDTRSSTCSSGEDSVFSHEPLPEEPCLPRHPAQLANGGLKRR

SMILES | target or system | test | system | setting | scale | endpoint | value
CC[C@H](C)[C@H](NC(=O)[C@@H]1CCCN1C(=O)[C@H](CCCCN)NC(=O)[C@H](CO)NC(=O)[C@H](CO)NC(=O)[C@H](Cc1ccc(O)cc1)NC(=O)[C@H](CO)NC(=O)[C@H](C)NC(=O)[C@H](CO)NC(=O)[C@@H](N)Cc1ccccc1)C(=O)N[C@@H](CCC(N)=O)C(=O)N[C@H](C(=O)N[C@@H](CCC(N)=O)C(=O)N[C@H](C(=O)N[C@@H](CO)C(=O)N[C@@H](CC(N)=O)C(=O)NCC(=O)N[C@@H](CCSC)C(=O)N[C@@H](CC(=O)O)C(=O)N[C@@H](CC(N)=O)C(=O)N[C@@H](C)C(=O)N[C@@H](CO)C(=O)N[C@@H](C)C(=O)N1CCC[C@H]1C(=O)N[C@H](C(=O)O)C(C)C)C(C)C)[C@@H](C)O | Peptide cyclase 1 (Gypsophila vaccaria, UniProt R4P353, S562A) | – | – | – | – | Kd | 136 ± 19 nM
N=C(N)NCCC[C@H](NC(=O)[C@H](CS)NC(=O)[C@H](Cc1ccc(O)cc1)NC(=O)[C@H](Cc1c[nH]c2ccccc12)NC(=O)[C@H](CCCNC(=N)N)NC(=O)[C@H](Cc1c[nH]c2ccccc12)NC(=O)[C@H](Cc1c[nH]cn1)NC(=O)CNC(=O)CN)C(=O)NCC(=O)NCC(=O)N[C@@H](CCCCN)C(N)=O | HCV IIB RNA | fluorescein-labelled RNA titration | – | 1 mM TCEP | – | Kd | 8800 ± 800 nM
CC[C@H](C)[C@H](NC(=O)[C@H](CCC(=O)O)NC(=O)[C@H](CC(=O)O)NC(=O)[C@H](CC(=O)O)NC(=O)[C@H](CC(=O)O)NC(=O)[C@H](CCCNC(=N)N)NC(=O)[C@@H](N)Cc1ccc(O)cc1)C(=O)N[C@@H](CC(=O)O)C(=O)N[C@H](C(=O)N[C@H](C(=O)N[C@@H](CO)C(=O)N1CCC[C@H]1C(=O)N[C@@H](Cc1c[nH]cn1)C(=O)O)C(C)C)C(C)C | Protein will die slowly, residues 50-361 (wds, Drosophila melanogaster, UniProt Q9V3J8) | binding, ITC | – | pH 7.0, 25 °C | – | Kd | 8600 nM
CC[C@H](C)[C@@H]1NC(=O)[C@@H]2CCCN2C(=O)[C@@H](NC(=O)[C@H](C)NC(=O)[C@H](CCSC)NC(C)=O)CSCc2cc3cc(c2)CSC[C@@H](C(=O)N[C@@H](Cc2ccc(O)cc2)C(=O)NCC(=O)N[C@@H](CO)C(=O)NCC(=O)N[C@@H](CO)C(=O)NCC(=O)N[C@@H](CO)C(=O)N[C@@H](CC(=O)O)C(=O)N[C@@H](Cc2ccc(O)cc2)C(=O)N[C@@H](CCCCN)C(=O)N[C@@H](CC(=O)O)C(=O)N[C@@H](CC(=O)O)C(=O)N[C@@H](CC(=O)O)C(=O)N[C@@H](CC(=O)O)C(=O)N[C@@H](CCCCN)C(N)=O)NC(=O)[C@H](Cc2ccc(O)cc2)NC(=O)[C@H](CCCNC(=N)N)NC(=O)[C@H](CC(C)C)NC(=O)[C@H]([C@@H](C)O)NC(=O)[C@H](CC(N)=O)NC(=O)[C@H]([C@@H](C)O)NC(=O)[C@H](CSC3)NC(=O)CNC1=O | Fibroblast growth factor receptor 1 (FGFR1, Homo sapiens, UniProt P11362) | binding, BLI | – | – | – | Kd | > 10000 nM
CC[C@H](C)[C@H](NC(=O)[C@H](Cc1c[nH]cn1)NC(=O)[C@H](CCCCNC(=O)[C@@H](NC(=O)[C@H](CCCCN)NC(=O)CSC[C@H](NC(=O)[C@H](Cc1ccccc1)NC(=O)[C@H](CCCCNC(=O)[C@H](CC(C)C)NC(=O)[C@@H]1CCCN1C(=O)[C@H](CCCCN)NC(=O)CCS[C@@H]1O[C@H](CO)[C@H](O)[C@H](O)[C@H]1O)NC(=O)[C@H](CC(C)C)NC(=O)[C@@H]1CCCN1C(=O)[C@H](CCCCN)NC(=O)C[C@@H]1O[C@@H](C)[C@@H](O)[C@@H](O)[C@@H]1O)C(N)=O)[C@@H](C)CC)NC(=O)[C@@H](NC(=O)[C@H](CCCCN)NC(=O)CSC[C@H](NC(=O)[C@H](Cc1ccccc1)NC(=O)[C@H](CCCCNC(=O)[C@H](CC(C)C)NC(=O)[C@@H]1CCCN1C(=O)[C@H](CCCCN)NC(=O)CCS[C@@H]1O[C@H](CO)[C@H](O)[C@H](O)[C@H]1O)NC(=O)[C@H](CC(C)C)NC(=O)[C@@H]1CCCN1C(=O)[C@H](CCCCN)NC(=O)C[C@@H]1O[C@@H](C)[C@@H](O)[C@@H](O)[C@@H]1O)C(N)=O)[C@@H](C)CC)C(N)=O | lecB | binding, ITC | – | pH 7.5 | – | Kd | 179 nM
CC(=O)N[C@H]1C(O)O[C@H](CO)[C@@H](O[C@@H]2O[C@H](CO)[C@H](O)[C@H](O)[C@H]2O)[C@@H]1O (some centres unmarked) | Galectin-3 (LGALS3, Homo sapiens, UniProt P17931) | isothermal titration calorimetry | – | full-length protein | – | Kd | 33000 nM
CN[C@](C)(C[18F])C(=O)O | A549 tumour model | – | host not given, lung | 2 h, tumour-bearing | – | tracer uptake | 1.1 %ID/g
CN(C)C(=O)C(NC(=O)c1ccccc1-c1ccc(C(F)(F)F)cc1)c1cccc(C(F)(F)F)c1 (centres unmarked) | NKG2-D type II integral membrane protein (Klrk1, Mus musculus, UniProt O54709) | binding, surface plasmon resonance | – | – | – | Kd | > 80000 nM
N=C(N)NCCC[C@H](NC(=O)[C@H](Cc1ccccc1)NC(=O)[C@@H]1CCCN1C(=O)[C@H](CO)NC(=O)[C@H](Cc1ccccc1)NC(=O)CNC(=O)[C@@H]1CCCN1C(=O)[C@@H]1CCCN1C(=O)[C@@H](N)CCCNC(=N)N)C(=O)N[C@@H](CCCCNS(=O)(=O)c1ccc(C2=c3cc4c5c(c3Oc3c2cc2c6c3CCCN6CCC2)CCC[N+]=5CCC4)c(S(=O)(=O)[O-])c1)C(=O)O | Oligopeptide-binding protein OppA (oppA, Lactococcus lactis subsp. lactis, UniProt Q07741) | binding, fluorescence anisotropy | – | pH 5, 37 °C, with: dye-labelled peptide | – | Kd | 21400 ± 500 nM
C[C@@H](O)[C@@H]1NC(=O)[C@H](CCCCN)NC(=O)CCCC(=O)NCCCC[C@@H](C(=O)NCC(=O)NCC(=O)N[C@@H](Cc2ccc(O)cc2)C(=O)NCC(=O)N[C@@H](CCCNC(=N)N)C(=O)N[C@@H](CCCCN)C(=O)N[C@@H](CCCCN)C(=O)N[C@@H](CCCNC(=N)N)C(=O)N[C@@H](CCCNC(=N)N)C(=O)N[C@@H](CCC(N)=O)C(=O)N[C@@H](CCCNC(=N)N)C(=O)N[C@@H](CCCNC(=N)N)C(=O)N[C@@H](CCCNC(=N)N)C(N)=O)NC(=O)[C@H](CCCCN)NC(=O)[C@H](CCC(=O)O)NC(=O)[C@H](CC(=O)O)NC(=O)CNC1=O | Heat shock protein HSP 90-alpha (HSP90AA1, Homo sapiens, UniProt P07900) | binding, field-effect biosensor | – | pH 7.4 | – | Kd | 115000 ± 54500 nM
CC(C)CC(NC(=O)C(NC(=O)NC(C(=O)O)C(C)C)C1CCNC(=N)N1)C(=O)NCCCNC(C(=O)O)C(OC1OC(CN)C(O)C1O)C1OC(n2ccc(=O)[nH]c2=O)C(O)C1O (centres unmarked) | Phospho-N-acetylmuramoyl-pentapeptide-transferase (mraY, Aquifex aeolicus, UniProt O66465) | isothermal titration calorimetry | – | 37 °C, with: 10 mM MgCl2 | – | Kd | 20.4 nM and ~20 nM
C=C(c1ccccc1)[C@@H](N)P(=O)(O)O | PAL1 (Petroselinum crispum, UniProt P24481, Y110F) | ITC | – | pH 8.0, 30 °C | – | Kd | 170 nM
CC[C@H](C)[C@H](NC(=O)[C@H](CCCCN)NC(=O)[C@H](Cc1ccccc1)NC(=O)[C@H](CCCCNC(=O)[C@H](CC(C)C)NC(=O)[C@@H]1CCCN1C(=O)[C@H](CCCCN)NC(=O)C[C@@H]1O[C@@H](C)[C@@H](O)[C@@H](O)[C@@H]1O)NC(=O)[C@H](CC(C)C)NC(=O)[C@@H]1CCCN1C(=O)[C@H](CCCCN)NC(=O)C[C@@H]1O[C@@H](C)[C@@H](O)[C@@H](O)[C@@H]1O)C(N)=O | lecB | binding, ITC | – | pH 7.5 | – | Kd | 123 nM
CC[C@H](C)[C@H](NC(=O)CNC(C)=O)C(=O)N[C@@H](CCCNC(=N)N)C(=O)N[C@@H](CCC(=O)O)C(=O)N[C@@H](C)C(=O)N[C@H](C(=O)N[C@@H](CC(C)C)C(=O)N[C@@H](CCCNC(=N)N)C(=O)N[C@@H](C)C(=O)N[C@@H](Cc1c[nH]c2ccccc12)C(=O)N[C@@H](CCC(=O)O)C(=O)N[C@@H](CCCNC(=N)N)C(=O)N[C@@H](CCCNC(=N)N)C(=O)N[C@@H](Cc1ccc(O)cc1)C(=O)NCC(N)=O)[C@@H](C)O | Antirepressor protein CarS (carS, Myxococcus xanthus, UniProt Q06911) | ITC | – | pH 7.5, 25 °C | – | Kd | 300 ± 50 nM
CC(C)C[C@H](NC(=O)[C@H](CCCNC(=N)N)NC(=O)[C@H](CCC(=O)O)NC(=O)[C@H](CCCCN)NC(=O)[C@H](CCCNC(=N)N)NC(=O)[C@H](CCCCN)NC(=O)[C@]1(C)CCCC=CCCC[C@](C)(NC(=O)[C@H](CC(C)C)NC(=O)[C@H](CO)NC(=O)[C@H](C)NC(=O)[C@H](CCCCN)NC(=O)[C@H](CCCNC(=N)N)NC(=O)[C@H](C)NC(=O)[C@H](CCC(N)=O)NC(=O)[C@@H]2CCCN2C(=O)[C@@H](NC(=O)[C@H](CO)NC(=O)c2ccc3c(c2)C(=O)OC32c3ccc(N(C)C)cc3Oc3cc(N(C)C)ccc32)C(C)C)C(=O)N[C@@H](CCCNC(=N)N)C(=O)N[C@@H](Cc2ccccc2)C(=O)N[C@@H](CC(C)C)C(=O)N1)C(=O)O | COI1, with JA-Ile (Arabidopsis thaliana, UniProt O04197) | COI1-JAZ binding, fluorescence anisotropy | – | pH 7.8, 25 °C, with: IP5 100 nM | lower = stronger binding | Kd | 29 ± 11 nM
CC(C)C[C@H](NC(=O)[C@@H](NC(=O)[C@H](C)NC(=O)[C@H](CCCNC(=N)N)NC(=O)[C@H](CC(=O)O)NC(=O)[C@H](CC(=O)O)NC(=O)[C@H](Cc1ccc(O)cc1)NC(=O)[C@H](CCCNC(=N)N)NC(=O)[C@H](Cc1c[nH]cn1)NC(=O)[C@@H](N)CC(C)C)[C@@H](C)O)C(=O)N[C@@H](C)C(=O)N[C@@H](CC(N)=O)C(=O)O | Gamma-enolase (ENO2, Homo sapiens, UniProt P09104) | biolayer interferometry | – | – | – | Kd | 29 nM
CC[C@H](C)[C@H](NC(=O)[C@H](CCC(N)=O)NC(=O)[C@@H](NC(=O)[C@H](CCCCN)NC(=O)CNC(=O)CNC(=O)CNC(=O)[C@@H]1CCCN1C(=O)[C@H](CCC(N)=O)NC(=O)[C@H](Cc1c[nH]cn1)NC(=O)[C@H](CCCCN)NC(=O)CNC(=O)CNC(=O)CNC(=O)[C@@H](N)CSC1CC(=O)N(c2ccc3c(c2)C(=O)OC32c3ccc(N(C)C)cc3Oc3cc(N(C)C)ccc32)C1=O)C(C)C)C(=O)N[C@H](C(=O)N[C@@H](CC(N)=O)C(=O)N[C@@H](CCCCN)C(=O)N[C@@H](CCCCN)C(=O)N[C@@H](CC(C)C)C(=O)N[C@@H](CC(=O)O)C(=O)N[C@@H](CC(C)C)C(=O)O)[C@@H](C)CC (some centres unmarked) | Tubulin alpha-1A/beta chain (Sus scrofa, UniProt P02550+P02554) | binding, equilibrium dialysis | – | pH 6.9, 25 °C | – | Kd | 3400 nM

Excerpt of the above:
SMILES | target or system | test | system | setting | scale | endpoint | value
CC(C)C[C@H](NC(=O)[C@@H](NC(=O)[C@H](C)NC(=O)[C@H](CCCNC(=N)N)NC(=O)[C@H](CC(=O)O)NC(=O)[C@H](CC(=O)O)NC(=O)[C@H](Cc1ccc(O)cc1)NC(=O)[C@H](CCCNC(=N)N)NC(=O)[C@H](Cc1c[nH]cn1)NC(=O)[C@@H](N)CC(C)C)[C@@H](C)O)C(=O)N[C@@H](C)C(=O)N[C@@H](CC(N)=O)C(=O)O | Gamma-enolase (ENO2, Homo sapiens, UniProt P09104) | biolayer interferometry | – | – | – | Kd | 29 nM
CC(C)CC(NC(=O)C(NC(=O)NC(C(=O)O)C(C)C)C1CCNC(=N)N1)C(=O)NCCCNC(C(=O)O)C(OC1OC(CN)C(O)C1O)C1OC(n2ccc(=O)[nH]c2=O)C(O)C1O (centres unmarked) | Phospho-N-acetylmuramoyl-pentapeptide-transferase (mraY, Aquifex aeolicus, UniProt O66465) | isothermal titration calorimetry | – | 37 °C, with: 10 mM MgCl2 | – | Kd | 20.4 nM and ~20 nM
